Results of several laboratories.
Protocols differ between the studies behind these lines. Numbers after ± are the reported error.
B1: rplK K39A (Thermus thermophilus, UniProt Q5SLP6); sequence looked up; chain MKKVVAVVKLQLPAGKATPAPPVGPALGQHGANIMEFVAAFNAATANMGDAIVPVEITIYADRSFTFVTKTPPASYLIRKAAGLEKGAHKPGREKVGRITWEQVLEIAKQKMPDLNTTDLEAAARMIAGSARSMGVEVVGAPEVKDA
B2: MED2/PGD1 four-helix bundle 1-431 (Saccharomyces cerevisiae); chain 1 MVVQNSPVSSVHTANFSERGSNTRTMTYKNKLTVCFDDILKVGAEMMMQQQLKNVQLDSYLVNGFSQSQQKLLKEKVKLFHGILDDLETSLSQSSSYLETLTALGKEKEKEREEAEKKRAEQENMRKVREQEELKKRQELEEASQQQQLQQNSKEKNGLGLNFSTTAPANTTDANGSKENYQELGSLQSSSQTQLENANAANNGAAFSPLTTTRIQSQQAQPSDVMFNDLNSMDISMFSGLDSTGFDSTAFNATVDETKGFDDNDSGNNYNDINISSIENNINNNINSTKNGKDNNNESNKNNNGDEKNKNNNEDNENNNNSSEKNNNNNNNNNNNNDDNGNNNNNNSGNDNNNTTNNDSNNKNNSITTGNDNENIVNNDLPTTVVSNPGDNPPPADNGEEYLTLNDFNDLNIDWSTTGDNGELDLSGFNI; chain 2 MDSIIPAGVKLDDLQVILAKNENETRDKVCKQINEARDEILPLRLQFNEFIQIMANIDQEGSKQADRMAKYLHIRDKILQLNDRFQTLSSHLEALQPLFSTVPEYLKTADNRDRSFQLLEPLSTYNKNGNAVCSTATVVSTNHSAAASTPTTTATPHANPITHAHSLSNPNSTATMQHNPLAGKRGPKSGSTMGTPTVHNSTAAAPIAAPKKPRKPRQTKKAKAQAQAQAQAQAQVYAQQSTVQTPITASMAAALPNPTPSMINSVSPTNVMGTPLTNMMSPMGNAYSMGAQNQGGQVSMSQFNGSGNGSNPNTNTNSNNTPLQSQLNLNNLTPANILNMSMNNDFQQQQQQQQQQQQPQPQYNMNMGMNNMNNGGKELDSLDLNNLELGGLNMDFL
B3: PUM1 589-1186 (Homo sapiens, UniProt Q14671); chain ISSSAAQAAVAAAAASANGAAGGLAGTTNGPFRPLGTQQPQPQPQQQPNNNLASSSFYGNNSLNSNSQSSSLFSQGSAQPANTSLGFGSSSSLGATLGSALGGFGTAVANSNTGSGSRRDSLTGSSDLYKRTSSSLTPIGHSFYNGLSFSSSPGPVGMPLPSQGPGHSQTPPPSLSSHGSSSSLNLGGLTNGSGRYISAAPGAEAKYRSASSASSLFSPSSTLFSSSRLRYGMSDVMPSGRSRLLEDFRNNRYPNLQLREIAGHIMEFSQDQHGSRFIQLKLERATPAERQLVFNEILQAAYQLMVDVFGNYVIQKFFEFGSLEQKLALAERIRGHVLSLALQMYGCRVIQKALEFIPSDQQNEMVRELDGHVLKCVKDQNGNHVVQKCIECVQPQSLQFIIDAFKGQVFALSTHPYGCRVIQRILEHCLPDQTLPILEELHQHTEQLVQDQYGNYVIQHVLEHGRPEDKSKIVAEIRGNVLVLSQHKFASNVVEKCVTHASRTERAVLIDEVCTMNDGPHSALYTMMKDQYANYVVQKMIDVAEPGQRKIVMHKIRPHIATLRKYTYGKHILAKLEKYYMKNGVDLGPICGPPNGII
B4: SPP1 R5K (Saccharomyces cerevisiae, UniProt Q03012); chain MSLPQWCPPHSTLKRNPTTGEDVYCICKRPDYGELMVGCDGCDDWFHFTCLHIPEQFKDLVFSFYCPYCQAGITGKNKDAIINGEGSLPKTLWKRKCRISDCYKPCLQDSKYCSEEHGREFVNDIWSRLKTDEDRAVVKKMVEQTGHIDKFKKFGQLDFIDNNIVVKTDDEKEIFDQIVVRDMTLKTLEDDLQEVQEISLPLFKKKLELLEVYLGWLDNVYTEMRKLDDDAASHVECGKEDSKGTAAAAAANSSRSRARKNICGYCSTYERIPCSVEEFVRDFGSNEEATKIHEVCTKWKCNRHLDWVSTNQEQYLQQIDSLESMQERLQHLIQARKKQLNIQYYEEILRRGL
B5: FERMT2 1-105 (Homo sapiens, UniProt Q96AC1); sequence looked up; chain MALDGIRMPDGCYADGTWELSVHVTDLNRDVTLRVTGEVHIGGVMLKLVEKLDVKKDWSDHALWWEKKRTWLLKTHWTLDKYGIQADAKLQFTPQHKLLRLQLPN
B6: SNAPC4 1-505 (Homo sapiens, UniProt Q5SXM2); chain MDVDAEREKITQEIKELERILDPGSSGSHVEISESSLESDSEADSLPSEDLDPADPPISEEERWGEASNDEDDPKDKTLPEDPETCLQLNMVYQEVIQEKLAEANLLLAQNREQQEELMRDLAGSKGTKVKDGKSLPPSTYMGHFMKPYFKDKVTGVGPPANEDTREKAAQGIKAFEELLVTKWKNWEKALLRKSVVSDRLQRLLQPKLLKLEYLHQKQSKVSSELERQALEKQGREAEKEIQDINQLPEEALLGNRLDSHDWEKISNINFEGSRSAEEIRKFWQNSEHPSINKQEWSREEEERLQAIAAAHGHLEWQKIAEELGTSRSAFQCLQKFQQHNKALKRKEWTEEEDRMLTQLVQEMRVGSHIPYRRIVYYMEGRDSMQLIYRWTKSLDPGLKKGYWAPEEDAKLLQAVAKYGEQDWFKIREEVPGRSDAQCRDRYLRRLHFSLKKGRWNLKEEEQLIELIEKYGVGHWAKIASELPHRSGSQCLSKWKIMMGKKQGL
B7: PSMA4 (Homo sapiens, UniProt P25789); chain MSRRYDSRTTIFSPEGRLYQVEYAMEAIGHAGTCLGILANDGVLLAAERRNIHKLLDEVFFSEKIYKLNEDMACSVAGITSDANVLTNELRLIAQRYLLQYQEPIPCEQLVTALCDIKQAYTQFGGKRPFGVSLLYIGWDKHYGFQLYQSDPSGNYGGWKATCIGNNSAAAVSMLKQDYKEGEMTLKSALALAIKVLNKTMDVSKLSAEKVEIATLTRENGKTVIRVLKQKEVEQLIKKHEEEEAKAEREKKEKEQKEKDK
B8: VAMP8 (Homo sapiens, UniProt Q9BV40); chain MEEASEGGGNDRVRNLQSEVEGVKNIMTQNVERILARGENLEHLRNKTEDLEATSEHFKTTSQKVARKFWWKNVKMIVLICVIVFIIILFIVLFATGAFS
B9: SEC61B/FDFT1 /378-end 2-59 L401C/S39C (Homo sapiens); chain PGPTPSGTNVGSSGRSPSKAVAARAAGSTVRQRKNASSGTRSAGRTTSAGTGGMWRFYSRSHYSPIYLSFVMLLAALSWQYCTTLSQVTEDYVQTGEH
B10: HY5 (Arabidopsis thaliana, UniProt O24646); sequence looked up; chain MQEQATSSLAASSLPSSSERSSSSAPHLEIKEGIESDEEIRRVPEFGGEAVGKETSGRESGSATGQERTQATVGESQRKRGRTPAEKENKRLKRLLRNRVSAQQARERKKAYLSELENRVKDLENKNSELEERLSTLQNENQMLRHILKNTTGNKRGGGGGSNADASL
B11: rcf2 (Schizosaccharomyces pombe, UniProt Q9P3B2); sequence looked up; chain MKLSTPEEVKAFNRNTYSALFKGALVGSSLGIAGWLIGNRYSAGFRRLPFSLKSWLVIGSGSGASIIFADKAGLKFEAERYGKFDQIDYSTKGLPWNQRALYYFNEHKWPIILGTWASTMGLSLYAASRNRYDTAPQKLIQARMYAQGVTVVVLLGSVYLSTLANRLEPLEREVLVTDPSNPTKLVAFKQRKERYPGELQWEVLVSQDEERLRKLNLPLREPHGSTGPMSTPTPALNSSRSA
B12: SF3B1 454-1304 K700E (Homo sapiens, UniProt O75533); chain KSVNDQPSGNLPFLKPDDIQYFDKLLVDVDESTLSPEEQKERKIMKLLLKIKNGTPPMRKAALRQITDKAREFGAGPLFNQILPLLMSPTLEDQERHLLVKVIDRILYKLDDLVRPYVHKILVVIEPLLIDEDYYARVEGREIISNLAKAAGLATMISTMRPDIDNMDEYVRNTTARAFAVVASALGIPSLLPFLKAVCKSKKSWQARHTGIKIVQQIAILMGCAILPHLRSLVEIIEHGLVDEQQEVRTISALAIAALAEAATPYGIESFDSVLKPLWKGIRQHRGKGLAAFLKAIGYLIPLMDAEYANYYTREVMLILIREFQSPDEEMKKIVLKVVKQCCGTDGVEANYIKTEILPPFFKHFWQHRMALDRRNYRQLVDTTVELANKVGAAEIISRIVDDLKDEAEQYRKMVMETIEKIMGNLGAADIDHKLEEQLIDGILYAFQEQTTEDSVMLNGFGTVVNALGKRVKPYLPQICGTVLWRLNNKSAKVRQQAADLISRTAVVMKTCQEEKLMGHLGVVLYEYLGEEYPEVLGSILGALKAIVNVIGMHKMTPPIKDLLPRLTPILKNRHEKVQENCIDLVGRIADRGAEYVSAREWMRICFELLELLKAHKKAIRRATVNTFGYIAKAIGPHDVLATLLNNLKVQERQNRVCTTVAIAIVAETCSPFTVLPALMNEYRVPELNVQNGVLKSLSFLFEYIGEMGKDYIYAVTPLLEDALMDRDLVHRQTASAVVQHMSLGVYGFGCEDSLNHLLNYVWPNVFETSPHVIQAVMGALEGLRVAIGPCRMLQYCLQGLFHPARKVRDVYWKIYNSIYIGSQDALIAHYPRIYNDDKNTYIRYELDYIL
B13: POL30 1-258 (Saccharomyces cerevisiae, UniProt P15873); chain MLEAKFEEASLFKRIIDGFKDCVQLVNFQCKEDGIIAQAVDDSRVLLVSLEIGVEAFQEYRCDHPVTLGMDLTSLSKILRCGNNTDTLTLIADNTPDSIILLFEDTKKDRIAEYSLKLMDIDADFLKIEELQYDSTLSLPSSEFSKIVRDLSQLSDSINIMITKETIKFVADGDIGSGSVIIKPFVDMEHPETSIKLEMDQPVDLTFGAKYLLDIIKGSSLSDRVGIRLSSEAPALFQFDLKSGFLQFFLAPKFNDEE
Chain of UniProt Q84BQ9 (whole entry, unmodified, looked up): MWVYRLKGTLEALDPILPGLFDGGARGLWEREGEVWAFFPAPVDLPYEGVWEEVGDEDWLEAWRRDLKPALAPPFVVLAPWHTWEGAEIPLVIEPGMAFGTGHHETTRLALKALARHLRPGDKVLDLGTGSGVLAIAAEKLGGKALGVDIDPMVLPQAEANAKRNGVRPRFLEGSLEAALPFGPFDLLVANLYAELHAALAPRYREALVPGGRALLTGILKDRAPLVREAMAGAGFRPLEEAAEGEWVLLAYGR
Chain of UniProt P38646 (whole entry, looked up): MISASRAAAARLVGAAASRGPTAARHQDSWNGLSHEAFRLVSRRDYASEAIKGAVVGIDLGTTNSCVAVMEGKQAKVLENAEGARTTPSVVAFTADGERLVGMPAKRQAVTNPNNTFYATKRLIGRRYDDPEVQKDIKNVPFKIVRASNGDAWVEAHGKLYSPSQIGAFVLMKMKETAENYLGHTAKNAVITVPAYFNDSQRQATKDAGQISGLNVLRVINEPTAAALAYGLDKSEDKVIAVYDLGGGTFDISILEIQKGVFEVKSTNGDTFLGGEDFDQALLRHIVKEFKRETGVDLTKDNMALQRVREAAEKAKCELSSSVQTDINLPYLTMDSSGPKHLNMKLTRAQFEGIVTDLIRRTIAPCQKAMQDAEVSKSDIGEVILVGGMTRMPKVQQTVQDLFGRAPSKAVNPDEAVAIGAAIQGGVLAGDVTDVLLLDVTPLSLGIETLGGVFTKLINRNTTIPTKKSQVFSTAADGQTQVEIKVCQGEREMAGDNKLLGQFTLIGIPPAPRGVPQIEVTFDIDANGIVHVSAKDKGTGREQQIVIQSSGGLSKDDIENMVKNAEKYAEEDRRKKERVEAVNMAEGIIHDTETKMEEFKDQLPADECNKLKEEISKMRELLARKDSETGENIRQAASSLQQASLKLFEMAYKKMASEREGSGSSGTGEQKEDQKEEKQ
Chain of UniProt P19659 (whole entry, looked up): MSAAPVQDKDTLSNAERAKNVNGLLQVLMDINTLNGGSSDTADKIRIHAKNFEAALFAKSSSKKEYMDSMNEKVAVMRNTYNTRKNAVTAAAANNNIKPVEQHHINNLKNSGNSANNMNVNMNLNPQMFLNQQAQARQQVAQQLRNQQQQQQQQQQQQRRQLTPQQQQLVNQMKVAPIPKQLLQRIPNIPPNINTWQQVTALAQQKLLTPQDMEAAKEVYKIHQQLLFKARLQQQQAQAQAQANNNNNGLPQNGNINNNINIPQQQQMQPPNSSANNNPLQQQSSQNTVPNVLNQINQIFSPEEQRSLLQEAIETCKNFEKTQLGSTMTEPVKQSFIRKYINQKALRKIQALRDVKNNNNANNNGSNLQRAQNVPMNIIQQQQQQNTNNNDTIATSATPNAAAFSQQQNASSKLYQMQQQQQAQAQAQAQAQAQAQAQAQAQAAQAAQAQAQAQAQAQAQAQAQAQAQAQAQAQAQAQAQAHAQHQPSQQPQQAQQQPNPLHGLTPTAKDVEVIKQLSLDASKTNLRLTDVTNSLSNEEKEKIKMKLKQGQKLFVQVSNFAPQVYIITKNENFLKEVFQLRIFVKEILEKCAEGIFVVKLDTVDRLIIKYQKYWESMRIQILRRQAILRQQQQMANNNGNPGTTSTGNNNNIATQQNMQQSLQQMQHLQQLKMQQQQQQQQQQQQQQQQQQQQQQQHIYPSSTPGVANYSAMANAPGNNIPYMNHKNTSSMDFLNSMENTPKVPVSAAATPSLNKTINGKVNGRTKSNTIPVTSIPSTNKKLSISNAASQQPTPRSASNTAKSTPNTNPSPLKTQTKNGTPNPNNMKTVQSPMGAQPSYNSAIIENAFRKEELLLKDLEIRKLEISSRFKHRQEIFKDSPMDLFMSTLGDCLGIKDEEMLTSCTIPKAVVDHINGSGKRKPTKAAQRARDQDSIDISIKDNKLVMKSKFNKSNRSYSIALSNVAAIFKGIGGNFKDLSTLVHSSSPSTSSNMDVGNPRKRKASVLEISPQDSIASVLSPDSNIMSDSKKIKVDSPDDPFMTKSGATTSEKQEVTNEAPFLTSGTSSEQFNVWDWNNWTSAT
Chain of UniProt O95456 (whole entry, looked up): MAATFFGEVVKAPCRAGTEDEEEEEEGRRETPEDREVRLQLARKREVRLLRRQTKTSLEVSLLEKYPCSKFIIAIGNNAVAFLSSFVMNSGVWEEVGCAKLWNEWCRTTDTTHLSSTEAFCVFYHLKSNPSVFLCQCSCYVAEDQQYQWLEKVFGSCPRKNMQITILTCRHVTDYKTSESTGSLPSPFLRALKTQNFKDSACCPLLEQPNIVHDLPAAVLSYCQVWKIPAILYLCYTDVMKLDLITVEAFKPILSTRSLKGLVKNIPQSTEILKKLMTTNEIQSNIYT
Chain of UniProt P21651 (whole entry, looked up): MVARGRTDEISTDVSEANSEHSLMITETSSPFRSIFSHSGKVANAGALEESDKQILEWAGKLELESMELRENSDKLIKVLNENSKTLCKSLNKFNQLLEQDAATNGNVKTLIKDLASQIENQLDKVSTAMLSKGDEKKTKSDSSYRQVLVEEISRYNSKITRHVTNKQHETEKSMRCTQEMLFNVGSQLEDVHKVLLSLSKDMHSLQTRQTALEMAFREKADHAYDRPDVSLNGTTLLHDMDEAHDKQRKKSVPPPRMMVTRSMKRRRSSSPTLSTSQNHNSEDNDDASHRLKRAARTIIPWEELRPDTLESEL
Chain of UniProt Q8WUP2 (whole entry, looked up): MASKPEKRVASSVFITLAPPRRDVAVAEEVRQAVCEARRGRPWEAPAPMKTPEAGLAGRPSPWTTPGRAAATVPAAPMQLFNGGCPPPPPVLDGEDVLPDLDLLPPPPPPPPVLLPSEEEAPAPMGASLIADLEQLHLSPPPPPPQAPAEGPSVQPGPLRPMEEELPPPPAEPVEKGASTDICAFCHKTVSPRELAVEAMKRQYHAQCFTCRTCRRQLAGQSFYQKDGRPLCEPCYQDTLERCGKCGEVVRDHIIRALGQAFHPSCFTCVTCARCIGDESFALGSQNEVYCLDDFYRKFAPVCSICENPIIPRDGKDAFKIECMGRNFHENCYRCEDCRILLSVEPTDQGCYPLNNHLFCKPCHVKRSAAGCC
Chain of UniProt P46957 (whole entry, looked up): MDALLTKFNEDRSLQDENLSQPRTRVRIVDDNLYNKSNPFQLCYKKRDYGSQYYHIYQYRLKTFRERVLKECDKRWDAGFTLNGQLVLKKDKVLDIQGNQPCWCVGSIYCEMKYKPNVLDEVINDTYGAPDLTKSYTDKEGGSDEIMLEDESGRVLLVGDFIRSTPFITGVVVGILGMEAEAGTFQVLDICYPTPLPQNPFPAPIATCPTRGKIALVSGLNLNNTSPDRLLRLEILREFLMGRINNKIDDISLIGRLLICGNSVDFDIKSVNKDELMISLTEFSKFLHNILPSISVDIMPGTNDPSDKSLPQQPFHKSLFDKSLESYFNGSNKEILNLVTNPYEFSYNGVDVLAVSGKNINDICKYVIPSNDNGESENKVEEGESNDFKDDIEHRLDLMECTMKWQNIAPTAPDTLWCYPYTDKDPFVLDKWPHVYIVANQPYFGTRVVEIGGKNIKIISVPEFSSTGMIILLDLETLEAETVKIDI
Chain of UniProt P40348 (whole entry, looked up): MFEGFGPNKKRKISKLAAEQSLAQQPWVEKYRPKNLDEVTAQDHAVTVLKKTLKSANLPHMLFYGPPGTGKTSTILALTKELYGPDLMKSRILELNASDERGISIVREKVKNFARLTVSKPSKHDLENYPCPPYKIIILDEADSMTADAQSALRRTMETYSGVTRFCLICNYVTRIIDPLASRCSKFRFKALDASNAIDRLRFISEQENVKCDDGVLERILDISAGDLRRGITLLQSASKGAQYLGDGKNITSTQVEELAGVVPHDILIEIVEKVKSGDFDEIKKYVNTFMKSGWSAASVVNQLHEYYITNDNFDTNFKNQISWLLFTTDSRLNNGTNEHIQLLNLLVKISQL
Chain of UniProt P15436 (whole entry, looked up): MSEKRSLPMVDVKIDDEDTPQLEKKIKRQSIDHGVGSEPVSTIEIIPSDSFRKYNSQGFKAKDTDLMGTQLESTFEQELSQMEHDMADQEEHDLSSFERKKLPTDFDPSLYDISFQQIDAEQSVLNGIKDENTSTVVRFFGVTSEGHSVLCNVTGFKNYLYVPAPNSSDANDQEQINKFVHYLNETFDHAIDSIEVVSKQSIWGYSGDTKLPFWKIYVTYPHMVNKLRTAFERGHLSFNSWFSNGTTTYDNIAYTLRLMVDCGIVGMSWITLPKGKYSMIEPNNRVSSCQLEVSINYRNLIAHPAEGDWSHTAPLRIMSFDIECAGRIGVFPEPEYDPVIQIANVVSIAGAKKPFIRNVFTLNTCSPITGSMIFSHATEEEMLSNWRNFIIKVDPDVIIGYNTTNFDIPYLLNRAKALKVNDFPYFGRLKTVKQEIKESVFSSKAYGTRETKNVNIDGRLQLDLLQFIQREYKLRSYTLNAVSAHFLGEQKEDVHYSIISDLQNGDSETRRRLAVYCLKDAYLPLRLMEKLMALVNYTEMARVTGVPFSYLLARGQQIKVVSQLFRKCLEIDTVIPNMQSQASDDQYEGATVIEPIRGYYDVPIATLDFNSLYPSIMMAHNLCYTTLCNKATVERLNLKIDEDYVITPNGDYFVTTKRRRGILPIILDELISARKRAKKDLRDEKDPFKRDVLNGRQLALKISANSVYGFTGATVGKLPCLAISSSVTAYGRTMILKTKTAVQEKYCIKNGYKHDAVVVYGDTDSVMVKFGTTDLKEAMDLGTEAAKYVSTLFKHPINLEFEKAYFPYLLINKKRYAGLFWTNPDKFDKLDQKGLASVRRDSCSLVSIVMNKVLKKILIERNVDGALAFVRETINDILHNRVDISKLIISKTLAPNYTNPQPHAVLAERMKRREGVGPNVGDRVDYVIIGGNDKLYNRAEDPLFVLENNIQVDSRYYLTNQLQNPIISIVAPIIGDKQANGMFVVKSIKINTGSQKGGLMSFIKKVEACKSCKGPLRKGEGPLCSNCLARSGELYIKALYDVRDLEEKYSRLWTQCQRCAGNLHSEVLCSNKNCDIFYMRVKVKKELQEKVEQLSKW

Molecule	target or system	assay	test system	conditions	how to read	quantity	value
B1 (rplK K39A)	prmA (Thermus thermophilus, UniProt Q84BQ9)	X-ray crystallography		complex, K39A mutant, with: sinefungin 1 mM		binding	binds
B2	GAL11 (Saccharomyces cerevisiae, UniProt P19659)	cryo-EM				binding	binds
B3 (PUM1 589-1186)	CNOT1/CNOT2/CNOT3 NOT module 1833-2361	cross-linking				binding	binds
colistin	Pseudomonas aeruginosa		clinical isolate RKI 612/16			MIC	1 µg/mL
11-deoxycorticosterone	CYP11B2 (human)	substrate binding, stopped-flow global kinetic fitting	purified enzyme	3-state conformational selection model, with: 40-fold excess adrenodoxin		rate constant k-2	29.3 ± 1.49 s⁻¹
B4 (SPP1 R5K)	REC107 (Saccharomyces cerevisiae, UniProt P21651)	pull-down				binding	binds
B5 (FERMT2 1-105)	PXN (Homo sapiens, UniProt P49023-3)	NMR titration				binding	binds
FTTVDFSSISTPHYEDIPFTRT (PPARG residues 65-86 (Homo sapiens); N-acetyl, pT75)	PIN1 (Homo sapiens, UniProt Q13526)	NMR	peptide			binding	binds
DVLLLDVTPLS (HSPA9 interdomain linker, 434-444 (Homo sapiens))	HSPA9 52-431 (Homo sapiens, UniProt P38646)	BLI	peptide	with: ADP		binding	binds
B6 (SNAPC4 1-505)	POLR3E (Homo sapiens, UniProt Q9NVU0)	cryo-EM				binding	binds
POL31 (Saccharomyces cerevisiae, UniProt P46957)	POL3 (Saccharomyces cerevisiae, UniProt P15436)	SAXS				binding	binds
B7 (PSMA4)	PSMG1 (Homo sapiens, UniProt O95456)	cryo-EM				binding	binds
SKKNNAASELANPASSYVSQIRKHKRVSPNAAPR (Nup60 285-318 Y298A (Saccharomyces cerevisiae, UniProt P39705); sequence looked up)	NUP85/SEH1 Nup85 1-564 (Saccharomyces cerevisiae)	pull-down	peptide			binding	binds
B8 (VAMP8)	FBLIM1 (Homo sapiens, UniProt Q8WUP2)	pull-down				binding	binds
B9	EMC3 C-terminal GFP fusion T102C (Homo sapiens, UniProt Q9P0I2)	cross-linking				binding	binds
B10 (HY5)	BHLH107 (Arabidopsis thaliana, UniProt Q9LET0)	pull-down				binding	binds
B11 (rcf2)	cox3 (Schizosaccharomyces pombe, UniProt P14575)	cryo-EM				binding	binds
B12 (SF3B1 454-1304 K700E)	SF3B3 (Homo sapiens, UniProt Q15393)	cryo-EM				binding	binds
B13 (POL30 1-258)	RFC2 (Saccharomyces cerevisiae, UniProt P40348)	cryo-EM				binding	binds
Peginesatide	UT7/EPO	tyrosine phosphorylation, LC-MS/MS phosphoproteomics, GluC, refers to: ALDOA tyrosine 363		10 nM, 15 min, with: 10 U/mL EPO	baseline: vehicle	phosphorylation level	3.3 fold

Excerpt of the above:
Molecule	target or system	assay	test system	conditions	how to read	quantity	value
B1 (rplK K39A)	prmA (Thermus thermophilus, UniProt Q84BQ9)	X-ray crystallography		complex, K39A mutant, with: sinefungin 1 mM		binding	binds
B2	GAL11 (Saccharomyces cerevisiae, UniProt P19659)	cryo-EM				binding	binds
